Published values of several laboratories.
Each numbered part is a random draw from the data of one study; scales do not carry over between parts. Substitutions count along the parent as printed.

Set 1
Target: Centromere-binding protein 1, full length, N-terminal tag (CBF1, Saccharomyces cerevisiae, UniProt P17106, residues 1-351)
UniProt P17106, sequence (whole entry, looked up): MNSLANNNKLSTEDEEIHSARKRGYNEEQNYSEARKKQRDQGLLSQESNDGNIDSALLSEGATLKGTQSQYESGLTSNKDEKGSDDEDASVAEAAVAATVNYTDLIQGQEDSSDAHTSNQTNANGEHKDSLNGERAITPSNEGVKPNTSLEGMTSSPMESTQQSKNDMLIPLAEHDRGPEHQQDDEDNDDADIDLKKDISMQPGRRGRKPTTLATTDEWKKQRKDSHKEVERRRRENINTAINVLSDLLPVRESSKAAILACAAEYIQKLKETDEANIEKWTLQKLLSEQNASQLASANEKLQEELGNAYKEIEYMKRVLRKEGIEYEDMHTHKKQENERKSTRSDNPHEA
Method: protein-binding microarray
Form: double-stranded DNA, one strand shown
Matrix: in vitro
Tested at: 0.8 µM
Setting: whole 60-bp probe, no competitor
Reading: higher = stronger binding
Constant ends, left off below: … GTCTTGATTCGCTTGACGCTGCTG
Strand	fluorescence intensity [a.u.]
GAAGGCGGCAAAAGGCGGGTGATTCGAAAAGTATAG	527
CTAAGTGCGTGACATCAGTATGCGCTTTGGATGTTC	724
CTACTGATAAAAACCTCCGTGATTTTTTGAATATTC	543
GAAAATCAAAAGGATGACGTCAACAAAAAACACTAG	520
CTATTTCTAATGCATCAGCTGTTATGCGCACTATTC	631
CTACCATTTTTAAGATTGGTGATGGATAGAATTTTC	530
CTAGATGCCCTCCCCCACGTTATTGTTGTATAATTC	519
CTATTTTTTGATATCCACACGTTATTGAGCTCATTC	545
CTATATCAACGCGTCCACACCACCTCACCCTCGTTC	540
CCTAACTACTATAGCCTCGTGGCATAGCTTCGTACA	578

Set 2
Target: ABI1, truncated, D143A, DHFR fusion (Arabidopsis thaliana)
Method: DHFR PCA, deep sequencing
Matrix: yeast
Setting: methotrexate growth selection, single substitutions
With: (+)-ABA 0.39 µM
Relative to: wild-type fitted maximum
Reading: higher = stronger binding
Starting sequence: PYL1, truncated, DHFR fusion (Arabidopsis thaliana); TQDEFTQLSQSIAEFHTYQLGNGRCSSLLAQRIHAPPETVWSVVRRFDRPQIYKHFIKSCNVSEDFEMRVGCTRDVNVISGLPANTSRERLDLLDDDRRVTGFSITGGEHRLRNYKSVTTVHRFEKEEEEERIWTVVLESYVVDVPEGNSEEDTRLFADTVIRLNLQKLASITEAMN
Change	relative binding score
Q7H	42.3%
H55A	72.9%
T86V	42.2%
P83Q	15.5%
V145W	-9.17%
N85Q	67%
L29S	3.18%
E130A	46%

Set 3
Target: RING finger protein unkempt homolog, zinc fingers 1-6, GST-SBP tag (UNK, Homo sapiens, UniProt Q9C0B0, residues 30-357)
UniProt Q9C0B0, sequence (30-357, looked up): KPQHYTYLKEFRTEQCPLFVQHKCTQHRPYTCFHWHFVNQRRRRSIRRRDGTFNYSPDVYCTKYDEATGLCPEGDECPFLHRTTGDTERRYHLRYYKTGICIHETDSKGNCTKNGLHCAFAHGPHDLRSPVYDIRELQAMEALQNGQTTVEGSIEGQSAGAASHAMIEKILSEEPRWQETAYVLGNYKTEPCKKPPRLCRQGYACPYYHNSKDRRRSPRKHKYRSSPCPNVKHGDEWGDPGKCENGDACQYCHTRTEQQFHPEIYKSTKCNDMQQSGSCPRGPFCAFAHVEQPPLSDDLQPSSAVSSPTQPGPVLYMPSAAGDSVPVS
Method: RNA Bind-n-Seq
Form: RNA
Matrix: in vitro
Tested at: not given
Setting: RNA with constant flanks, ends assumed
Relative to: input RNA pool
Reading: higher = stronger binding
Constant ends, left off below: GGGAGUUCUACAGUCCGACGAUC … CAACAGAGGAUUGAGCAUCA
Strand	bound/input enrichment [ratio]
UCUGGCCAUACUCGUGCAUAUGGUGUGUGCUUUGUUGAUACUUCACUGGGAAAGUUUUUCACCGGUCAGUUUUCAGAUGAUCGCCAUUGUUCGAGAUUUAGGACUCUAGUGGCACACUAU	0.285
CUACUUUAGAGGAUUUCAGCCUUGAUGUUUUAAUAUCCUAGGCCUCUGCUGUAAUAAGAUUUCCGACAAAUGUUUGGAAUUUAAGAAGCAACUCAUGUUACUAAUUUGUAUAGCCCAUAU	1.03
GCUGGAUAUGGAGACAUUUACCUCAAUGCUGGUCCCAUGUUGUUUAGUGGAGACAAGGACCACCGAUUUGAAUAUAGCCAUGGUCCUAUCACAGUCCUCACAAACAGCAAUGACCCUUCC	0.107
GAGGAGGAGGGAAAGUCUAGCUCACCAAAGAAAAAGAUCAAGUUGAAGAAAAGUAAAAAUGCCGCAACUGAAGGAACCAGUACCCAGAAAGAAUUUGAAGUGAAAGAUCCUGAGCUGGAG	0.368
GCCAAAUACGUCUGGGCAGCCACGGCCGGGGGCGUCUUUCAGAGCAUUACGCCAACCGAAACCGAUAUGAUUGUAGGAAAAGACCGGGAAGGUUUCUUUACCAACGGUUUGACUCUUGGC	0.118
UGGCUUAAUCAAAUCAUGCCUAAGAAAGACCCUGUGAAAAUUGUCCGAUGCCAUGAACACACCGAAAUCCUUACAGUAAAUGGAGAAUUACUGUUUUUUAGACAAAGAGAAGGGCCUUUU	0.7
GGGUUCUAUGAAUUUUUAAAUUGGUUUGAUGAAAGAGCAUGGUAUCCACUAGGAAGAACCGCCGGUGGUACUGUUUACCCAGGGUUGAUGAUAACCGCUGGCCUUAUUCAUUGGAUUUUA	0.364
CAUUGUAUGUUGAUGAGUUGAUUAAGUCUAACAGAUUCAUCAAGACUCCAUUGCUUUAUUACCGAGACAUUUGAAAAUAUCCAUUAAUGUGAAUAUCACCUGAAUUCAGUCUGUUUGGUG	0.175

Single results of other studies
Molecule	target	test	system	setting	how to read	quantity	result
PhoQ, residues 284 288 289 292 302 303 TNASYF	PhoP, residues 12 14 15 18 19 MHTVL (Escherichia coli, UniProt P23836)	Sort-seq, refers to: YFP reporter	E. coli	PhoQ-PhoP variant library, with: 10 µM Mg2+	relative to: high Mg2+ state, higher = stronger signaling	fold induction	8.88

For quick reference, copied from above (set 1):
Strand	fluorescence intensity [a.u.]
CTAGATGCCCTCCCCCACGTTATTGTTGTATAATTC	519
CTATTTTTTGATATCCACACGTTATTGAGCTCATTC	545
CTATATCAACGCGTCCACACCACCTCACCCTCGTTC	540
CCTAACTACTATAGCCTCGTGGCATAGCTTCGTACA	578
